{"data": "Experimental data from different studies", "note": "A part holds a random share of what one study measured. Positions count from the first letter of the parent shown."}
{"data": "Set 1", "target": "Histone acetyltransferase KAT6A, winged helix 2, GST fusion (KAT6A, Homo sapiens, UniProt Q92794, residues 85-181)", "technique": "protein binding microarray", "molecule type": "double-stranded DNA, one strand shown", "medium": "in vitro", "concentration": "not given", "notes": "8-mer, flanks averaged, mean of 2 arrays, mostly near background", "relative to": "not given", "direction": "higher = stronger binding", "Residues (chain)": "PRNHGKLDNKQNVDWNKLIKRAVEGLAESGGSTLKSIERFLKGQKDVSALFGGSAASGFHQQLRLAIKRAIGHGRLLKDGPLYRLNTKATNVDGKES"}
{"Strand": "ATCCGCGG", "E-score": 0.208}
{"Strand": "AGATAACA", "E-score": 0.0324}
{"Strand": "GGATCCAA", "E-score": 0.0352}
{"Strand": "AGTCACTA", "E-score": -0.173}
{"Strand": "ATATAATC", "E-score": -0.0812}
{"Strand": "CGAGAGGC", "E-score": -0.053}
{"Strand": "TTATAGAA", "E-score": 0.167}
{"Strand": "AATCAAGT", "E-score": -0.0233}
{"Strand": "CCCTCCCG", "E-score": 0.243}
{"Strand": "AACCCAAG", "E-score": -0.162}
{"Strand": "GAAGCTTA", "E-score": -0.0332}
{"Strand": "CTAGAGAC", "E-score": -0.191}
{"data": "Set 2", "target": "CCND2, cyclin fold, Cln2 fusion (human)", "technique": "yeast growth competition, sequencing", "medium": "yeast", "notes": "weak parent motif", "relative to": "not given", "direction": "higher = stronger binding", "parent": "MICAL3 docking peptide (human); LQLRRQLSFSEDS; partner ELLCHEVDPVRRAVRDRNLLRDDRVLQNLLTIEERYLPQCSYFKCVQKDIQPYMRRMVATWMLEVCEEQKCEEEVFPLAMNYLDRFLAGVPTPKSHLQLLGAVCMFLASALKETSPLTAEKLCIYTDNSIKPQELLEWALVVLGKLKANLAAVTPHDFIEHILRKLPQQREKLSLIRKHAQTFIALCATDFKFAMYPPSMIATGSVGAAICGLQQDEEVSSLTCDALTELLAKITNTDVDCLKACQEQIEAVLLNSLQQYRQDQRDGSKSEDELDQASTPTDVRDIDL"}
{"Change": "LQLRRQLPFSEDS [S8P]", "normalised enrichment score": 0.0973}
{"Change": "LQLRRQLSFSYDS [E11Y]", "normalised enrichment score": 0.16}
{"Change": "LQLRRDLSFSEDS [Q6D]", "normalised enrichment score": -0.0203}
{"Change": "LQLRRQHSFSEDS [L7H]", "normalised enrichment score": 0.253}
{"Change": "LQLRRALSFSEDS [Q6A]", "normalised enrichment score": 0.196}
{"Change": "LQLQRQLSFSEDS [R4Q]", "normalised enrichment score": 0.103}
{"Change": "LQLRRQLWFSEDS [S8W]", "normalised enrichment score": 0.0463}
{"Change": "LQLRRQLFFSEDS [S8F]", "normalised enrichment score": 0.189}
{"Change": "LQLARQLSFSEDS [R4A]", "normalised enrichment score": 0.282}
{"data": "Set 3", "target": "Transcription factor Sp1 (SP1, Homo sapiens, UniProt P08047, residues 1-785, full length assumed)", "technique": "protein-binding microarray", "molecule type": "double-stranded DNA, one strand shown", "medium": "in vitro", "concentration": "not given", "notes": "k-mer, scored over probes, only values ≥0.25", "direction": "higher = stronger binding", "sequence of UniProt P08047 (whole entry, looked up)": "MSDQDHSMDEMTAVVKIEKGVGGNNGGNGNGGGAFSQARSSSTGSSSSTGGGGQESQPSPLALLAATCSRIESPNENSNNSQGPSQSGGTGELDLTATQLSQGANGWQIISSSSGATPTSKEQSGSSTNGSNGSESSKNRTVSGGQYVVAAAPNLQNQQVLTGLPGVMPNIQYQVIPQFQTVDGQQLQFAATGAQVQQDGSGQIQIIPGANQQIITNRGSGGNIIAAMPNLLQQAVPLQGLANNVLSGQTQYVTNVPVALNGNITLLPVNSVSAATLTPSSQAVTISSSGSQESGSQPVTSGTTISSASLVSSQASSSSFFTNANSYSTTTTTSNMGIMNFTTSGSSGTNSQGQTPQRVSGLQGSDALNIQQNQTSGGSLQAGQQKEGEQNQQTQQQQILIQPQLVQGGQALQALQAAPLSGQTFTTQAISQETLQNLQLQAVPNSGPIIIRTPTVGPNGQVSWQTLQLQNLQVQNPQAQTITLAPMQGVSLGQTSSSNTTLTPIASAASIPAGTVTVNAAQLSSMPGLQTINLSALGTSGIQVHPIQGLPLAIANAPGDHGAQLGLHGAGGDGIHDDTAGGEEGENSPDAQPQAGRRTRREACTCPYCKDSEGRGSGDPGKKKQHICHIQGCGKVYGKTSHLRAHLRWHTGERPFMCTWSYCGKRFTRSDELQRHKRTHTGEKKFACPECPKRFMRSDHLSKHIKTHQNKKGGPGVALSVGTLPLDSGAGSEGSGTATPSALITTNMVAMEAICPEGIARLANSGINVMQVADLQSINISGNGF"}
{"Strand": "ACATAGAA", "E-score": 0.251}
{"Strand": "CGTATATA", "E-score": 0.256}
{"Strand": "ACTACACA", "E-score": 0.264}
{"Strand": "GTGTCATA", "E-score": 0.316}
{"Strand": "GGCGTATA", "E-score": 0.261}
{"Strand": "AAGGGAGG", "E-score": 0.333}
{"Strand": "ATCGGGGC", "E-score": 0.252}
{"Strand": "CTCCCCTA", "E-score": 0.331}
{"data": "Single results of other studies"}
{"Molecule": "PhoQ, residues 284 288 289 292 302 303 SSCCRF", "target": "PhoP, residues 12 14 15 18 19 AWHSL (Escherichia coli, UniProt P23836)", "assay": "Sort-seq, item: YFP reporter", "system": "E. coli", "conditions": "PhoQ-PhoP variant library, with: 10 µM Mg2+", "how to read": "relative to: high Mg2+ state, higher = stronger signaling", "endpoint": "fold induction", "result": 0.792}
